{"data": "Measured values pooled from the literature", "note": "Compare with care: the assays were run in different laboratories."}
{"SMILES": "COc1ncnn2ccc(-c3cnc4nc(C)n(Cc5nnc([C@@H](C)F)o5)c4c3)c12", "system": "Homo sapiens, relapsed or refractory AML or MDS", "conditions": "dose not given, responding patients", "measurement": "median remission time", "result": "56 days"}
{"SMILES": "N#CC[C@H](C1CCCC1)n1cc(-c2ncnc3[nH]ccc23)cn1", "assay": "phosphoflow cytometry, item: pS6", "system": "patients, patient plasma", "conditions": "dose not given", "scale": "relative to: baseline", "measurement": "median peak inhibition", "result": "62.3%"}
{"SMILES": "O=C(NCc1ccccc1)c1c(/N=C/c2c(O)ccc3ccccc23)sc2c1CCCC2", "target or system": "OCI-Ly1", "conditions": "1 µM, 120 h", "measurement": "viability", "result": "106%"}
{"SMILES": "COCCOc1cnc2ccn([C@H](C)c3nnc4c(F)cc(-c5cnn(C)c5)cn34)c(=O)c2c1", "system": "MET-amplified advanced solid tumour patients", "conditions": "dose not given", "measurement": "median duration of partial response", "result": "91 days"}
{"SMILES": "Cc1cc(Nc2ncc(Cl)c(Nc3ccccc3S(=O)(=O)C(C)C)n2)c(OC(C)C)cc1C1CCNCC1", "system": "patients with advanced solid tumours", "conditions": "dose not given, added: gemcitabine", "measurement": "median progression-free survival", "result": "3.4 months"}
{"SMILES": "CN(C)c1ccc(C(=O)NCCCCCC(=O)NO)cc1", "target or system": "OCI-Ly1", "conditions": "0.1 µM, 120 h", "measurement": "viability", "result": "177%"}
{"SMILES": "Cc1cccc(-c2[nH]c(CNc3ccccc3F)nc2-c2ccc3ncnn3c2)n1", "system": "relapsed refractory multiple myeloma patients", "conditions": "oral, dose not given, added: pomalidomide", "measurement": "median time to first response", "result": "1 to 2 months"}
{"SMILES": "CCN1CCN(Cc2ccc(Nc3ncc(F)c(-c4cc(F)c5nc6n(c5c4)[C@H](C)CCC6)n3)nc2)CC1", "assay": "Phase Ia, RECIST v1.1", "system": "patients with advanced solid tumours", "conditions": "dose not given, monotherapy, all doses", "measurement": "median progression-free survival", "result": "6.5 months"}
{"SMILES": "Cc1cc(C)c(CNC(=O)c2cc(Cl)c3c(c2C)O[C@@](C)([C@H]2CC[C@H](N(C)C)CC2)O3)c(=O)[nH]1", "system": "relapsed/refractory B-NHL patients", "conditions": "dose not given, IWG 2007 criteria", "measurement": "median duration of response", "result": "> 18 months"}
{"SMILES": "Nc1nc2cc(-c3ccc4ncc(C(=O)N5CCOCC5)n4c3)ccc2o1", "assay": "RECIST v1.1", "system": "advanced solid tumour patients", "conditions": "dose not given, Mon-Wed-Fri dosing", "measurement": "median clinical benefit duration", "result": "4.8 months"}
{"SMILES": "CN(C)C(=O)c1cc2cnc(Nc3ccc(N4CCNCC4)cn3)nc2n1C1CCCC1", "system": "HR+/HER2− advanced breast cancer patients", "conditions": "dose not given, de novo disease", "measurement": "median PFS2", "result": "52.4 months"}
{"SMILES": "CC(C)n1c(C2CCNCC2)nc2c([N+](=O)[O-])c(Br)c(Br)cc21", "assay": "item: blasts", "system": "AML patients IDH mutated, bone marrow", "conditions": "dose not given, all doses", "measurement": "median change from baseline", "result": "-43%"}
{"SMILES": "CN[C@@H](C)C(=O)N[C@H]1CN(S(=O)(=O)c2cccc(S(=O)(=O)N3CC[C@H]4CC[C@@H](C(=O)NC(c5ccccc5)c5ccccc5)N4C(=O)[C@@H](NC(=O)[C@H](C)NC)C3)c2)CC[C@H]2CC[C@@H](C(=O)NC(c3ccccc3)c3ccccc3)N2C1=O", "assay": "RECIST 1.1", "system": "advanced pancreatic cancer patients", "conditions": "dose not given, prior therapy, added: AG", "measurement": "median progression-free survival", "result": "2.76 months"}
{"note": "For quick reference, copied from above:"}
{"SMILES": "COCCOc1cnc2ccn([C@H](C)c3nnc4c(F)cc(-c5cnn(C)c5)cn34)c(=O)c2c1", "system": "MET-amplified advanced solid tumour patients", "conditions": "dose not given", "measurement": "median duration of partial response", "result": "91 days"}
